Measurements of several laboratories.
Numbered parts are unrelated; each lists some results of a single study. Positions count from the first letter of the parent shown.

Series 1
Target: Fragile X messenger ribonucleoprotein 1, C-terminal low-complexity region (Fmr1, Mus musculus, UniProt P35922)
Technique: RNA Bind-n-Seq
Molecule type: RNA
Matrix: in vitro
Tested at: 200 nM
Setting: whole 134-nt RNA, ends assumed
Together with: 150 mM LiCl
Relative to: input library
Reading: higher = stronger binding
Each molecule: 7-deaza-guanosine replaces G
Oligonucleotide	log2 enrichment
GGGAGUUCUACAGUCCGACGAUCGCAGGAAGUAAAAACAAAUGGAAAUGCUUCGGAUAGUGGCAGGGGUGGGGGUUGUUAAGGAAAGGGUGGGAUGGGAGUGGGUAAAGAGUUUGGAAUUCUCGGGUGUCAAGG	1.66
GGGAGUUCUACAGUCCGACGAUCUGGCCCUGGUGGCAUGCGGGGAGGAAGAGGUGGCCUCAUGGAUCGUGGUGGUCCCGCUGGAAUGUUCAGAGGUGGCCGUGGUGGAGACAGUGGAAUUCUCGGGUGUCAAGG	-0.593
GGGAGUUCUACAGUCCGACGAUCAGUCCUGUGCUACACAUCGUAUGUACCGAAUCGGUUUUUGGAAAAAAAGGAAAAAGGAAAGUAUUAUGUUACGCCGUUCGGAUCUGCACUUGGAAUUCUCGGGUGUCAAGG	-2.98
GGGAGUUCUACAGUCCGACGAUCUAACUUUAGAGGAGGAUCUGAUGGAUAUGGCAGUGGACGUGGACUUGGGGAUGGCUAUAAUGGGUAUGGAGGAGGACCUGGAGGUGGCAAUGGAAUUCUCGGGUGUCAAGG	0.0801
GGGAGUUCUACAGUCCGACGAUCCACAGACAACACGCACCCACACAGACACAGAGGGAAGGGGUUGGGAUGGGGACAGGGUGCACAGCAUGGCGGGGUAGGACCCCAGCCCCUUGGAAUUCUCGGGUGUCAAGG	0.0958
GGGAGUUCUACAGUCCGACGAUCUCAAGUCCUGUGCUACACAUCGUAUGUACCGAAUCGGGAAGGGGAAGGGAAGGGGAAAGUAUUAUGUUACGCCGUUCGGAUCUGCACUUCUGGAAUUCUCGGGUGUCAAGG	-0.535
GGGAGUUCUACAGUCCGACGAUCGCAGGAAGUAAAAACAAAUGGAAAUGCUUCGGAUAGUGGCAGGGGUGGGAAAUGCUAAGGAAAGGGUGGGAUGGGAGUGGGUAAAGAGUUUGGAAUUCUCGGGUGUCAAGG	1.27
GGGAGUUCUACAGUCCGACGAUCUGGGAGGUGGAUUUUGUUUAUUUUUUUAGCUCAUUUCCAGGGGUGGGAAUUUUUUUUUAAUAUGUGUCAUGAAUAAAGUUGCUUUUGAAAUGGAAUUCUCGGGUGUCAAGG	-0.311
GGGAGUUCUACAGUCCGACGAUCCUCAAGUCCUGUGCUACACAUCGUAUGUACCGAAUCGGAAGGAAGGGAAGGGGAAAGUAUUAUGUUACGCCGUUCGGAUCUGCACUUCCAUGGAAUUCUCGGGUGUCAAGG	-0.0752
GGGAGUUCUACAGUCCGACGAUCAGUCCUGUGCUACACAUCGUAUGUACCGAAUCGGGUUUUUGGGUUUUUGGUUUUUGGGAAAGUAUUAUGUUACGCCGUUCGGAUCUGCACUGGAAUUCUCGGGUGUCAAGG	-1.6
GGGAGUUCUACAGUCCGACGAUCCACAGACAACACUCACCCACACAGACACAGAGGGAAGGGGUUGGGAUGGGGACAGGGUGCACAGCAGGGCGGGGUAGGACCCCAGCCCCUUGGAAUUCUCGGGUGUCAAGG	0.189

Series 2
Target: BATF, bZIP domain (human)
Technique: DHFR protein complementation
Matrix: yeast
Setting: single substitutions, most at no-binding floor
Relative to: wild-type JUN-FOS pair
Reading: higher = stronger binding
Parent: JUN, bZIP domain (human); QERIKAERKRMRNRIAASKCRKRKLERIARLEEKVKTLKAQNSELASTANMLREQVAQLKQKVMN; partner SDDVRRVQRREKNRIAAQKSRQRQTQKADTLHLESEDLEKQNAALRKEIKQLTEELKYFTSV
Variant	binding fitness [natural log]
A46I	0.0521
A57T	-0.0448
R53C	-0.581
Q41D	-0.135
T48P	-1.25
A46S	-0.00416

Series 3
Target: Sal-like protein 4, full length isoform A (SALL4, Homo sapiens, UniProt Q9UJQ4, residues 1-1053)
Sequence of UniProt Q9UJQ4 (whole entry, looked up): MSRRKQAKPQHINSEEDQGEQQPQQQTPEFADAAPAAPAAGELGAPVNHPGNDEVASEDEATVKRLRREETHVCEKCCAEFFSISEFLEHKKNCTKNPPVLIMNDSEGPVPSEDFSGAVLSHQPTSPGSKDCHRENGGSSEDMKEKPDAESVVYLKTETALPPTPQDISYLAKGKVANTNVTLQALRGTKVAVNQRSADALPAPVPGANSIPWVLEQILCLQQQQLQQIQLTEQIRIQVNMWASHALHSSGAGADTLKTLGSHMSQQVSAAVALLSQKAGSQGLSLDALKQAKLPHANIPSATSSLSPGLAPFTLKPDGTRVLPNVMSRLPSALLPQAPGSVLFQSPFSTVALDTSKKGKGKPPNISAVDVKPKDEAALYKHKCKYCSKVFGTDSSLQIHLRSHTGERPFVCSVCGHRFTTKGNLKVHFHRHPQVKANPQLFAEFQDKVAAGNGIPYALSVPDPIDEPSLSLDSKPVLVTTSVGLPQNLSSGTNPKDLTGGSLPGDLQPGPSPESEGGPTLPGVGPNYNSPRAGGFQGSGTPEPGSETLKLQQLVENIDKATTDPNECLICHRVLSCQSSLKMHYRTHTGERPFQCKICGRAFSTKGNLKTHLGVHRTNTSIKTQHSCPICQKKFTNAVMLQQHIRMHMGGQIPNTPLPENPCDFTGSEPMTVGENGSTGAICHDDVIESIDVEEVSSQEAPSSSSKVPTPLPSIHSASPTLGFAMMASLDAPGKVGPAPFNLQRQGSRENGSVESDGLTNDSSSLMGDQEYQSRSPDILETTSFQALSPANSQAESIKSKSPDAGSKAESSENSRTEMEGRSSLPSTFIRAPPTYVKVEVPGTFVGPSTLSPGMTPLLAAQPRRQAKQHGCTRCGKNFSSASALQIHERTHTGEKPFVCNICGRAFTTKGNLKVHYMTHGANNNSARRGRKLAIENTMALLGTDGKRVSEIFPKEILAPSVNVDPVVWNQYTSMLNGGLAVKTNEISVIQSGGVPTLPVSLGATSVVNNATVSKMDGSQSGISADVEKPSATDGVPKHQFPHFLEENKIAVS
Technique: universal PBM
Molecule type: double-stranded DNA, one strand shown
Matrix: in vitro
Tested at: 600 nM
Setting: 8-mer, flanks averaged, mean of replicates
Reading: higher = stronger binding
Oligonucleotide	E-score
GCTTAGGA	-0.275
GAAAGAGC	-0.0793
CTTCCGAC	-0.0973
CCTCGGCC	-0.301
CCTCTCTC	-0.0717
CCGCCTAG	-0.162
CCGGCATA	-0.121
CAACGATA	0.252
ACGTAGTA	0.0271
ACGACCAG	-0.11

Single results of other studies
Molecule	target	assay	test system	setting	how to read	quantity	value
PhoQ, residues 284 288 289 292 302 303 QWQEDG	PhoP, residues 12 14 15 18 19 AQCLL (Escherichia coli, UniProt P23836)	Sort-seq, refers to: YFP reporter	E. coli	PhoQ-PhoP variant library, together with: 10 µM Mg2+	relative to: high Mg2+ state, higher = stronger signaling	fold induction	1.68
